# Results gathered from unrelated publications.
# Every numbered part comes from another study and shows a few of its results, in no order. Substitutions count along the parent as printed.

# Study 1
# Target: Fragile X messenger ribonucleoprotein 1, C-terminal low-complexity region (Fmr1, Mus musculus, UniProt P35922)
# Method: RNA Bind-n-Seq
# Molecule type: RNA
# Sample: in vitro
# Concentration: 200 nM
# Setting: whole 134-nt RNA, ends assumed
# Added: 150 mM LiCl
# Baseline: input library
# Reading: higher = stronger binding
# All molecules: 7-deaza-guanosine replaces G
# Shared flanks, not repeated: GGGAGUUCUACAGUCCGACGAUC … UGGAAUUCUCGGGUGUCAAGG
Sequence,log2 enrichment
UCAAGUCCUGUGCUACACAUCGUAUGUACCGAAUCGGAAGGGGAAGGGAAGGGGAAAGUAUUAUGUUACGCCGUUCGGAUCUGCACUUCC,-0.457
AGUCCUGUGCUACACAUCGUAUGUACCGAAUCGGGAAAGGGUUUUUUUGGGUUUGGGAAAGUAUUAUGUUACGCCGUUCGGAUCUGCACU,-2.08
UAACUUUAGAGGAGGAUCUGAUGGAUAAGGCAGUGGACGUGGAUUUGGGGAUGGCUAUAAUGGGUAUGGAGGAGGACCUGGAGGUGGCAA,0.0263
CUGUGCUACACAUCGUAUGUACCGAAUCGGGCCCCCCCGGCCCCCCCGGGGCCCCCCCGGGAAAGUAUUAUGUUACGCCGUUCGGAUCUG,0.00269
GUCCUGUGCUACACAUCGUAUGUACCGAAUCGGGGAAAAAGGGGUUUGGGGAAAGGGGAAAGUAUUAUGUUACGCCGUUCGGAUCUGCAC,-1.3
UGCUGGAGUGGCAGAAGACUUUUGAGGAGAAGCUCACGCCGUUGCUGAGUGUGCGGGAGUCACUCUCAGAGGAAGAGGCCCAGAAGAUGG,-2.38
CUCAAGUCCUGUGCUACACAUCGUAUGUACCGAAUCGGUUUGGUGGAAAAAGGAAAGUAUUAUGUUACGCCGUUCGGAUCUGCACUUCCA,-0.152
UUUGAGGUCAAACGCCGCGGGGAACUGCAGCUGAUUAAGAUCUUCCAAUCCUCGGUGUUUGAGGCCUUCCUCAAGGGCAGCACGCUGGAA,-2.61
CUCAAGUCCUGUGCUACACAUCGUAUGUACCGAAUCGGUUGGUUGGGGUUGGGAAAGUAUUAUGUUACGCCGUUCGGAUCUGCACUUCCA,0.156
GCAGGAAGUAAAAACAAAUGGAAAUGCUUCGGAUAGUGGCAAAGGUGGGGGUUGCUAAGGAAAGGGUGGGAUGGGAGUGGGUAAAGAGUU,1.21
UGGGAGGUGGAUUUUGUUUAUGUUUUUAGCUCAUUUCCAGGGGUGGGAAUUUUUUUUUAAUAUGUGUCAUGAAUAAAGUUGUUUUUGAAA,-0.175

# Study 2
# Target: Prothrombin, mature alpha-thrombin (F2, Homo sapiens, UniProt P00734)
# Method: aptamer microarray, sandwich
# Molecule type: DNA with 2'F-ANA
# Sample: in vitro
# Concentration: 200 nM
# Setting: whole 15-mer aptamer, many near background
# Added: Cy3 exosite-II aptamer, 400 nM
# Reading: higher = stronger binding
# Sequence: GGTTGGTGTGGTTGG
Modification,mean fluorescence intensity [a.u.]
2'F-ANA at 3 4 5 6 7 11 13 14,59.1
2'F-ANA at 1 2 3 7 10 12 14 15,60.7
2'F-ANA at 3 4 5 8 10 12 13 14 15,51.3
2'F-ANA at 1 4 6 7 8 10 12 13 14 15,50.3
2'F-ANA at 1 5 6 8 9 10 12 15,48.3
2'F-ANA at 2 5 9 11 12 14 15,47.5
2'F-ANA at 2 8 10 11 14 15,75.4
2'F-ANA at 3 6 9 10 12 15,512
2'F-ANA at 1 4 11 12 13,182
2'F-ANA at 2 3 6 7 11,629
2'F-ANA at 1 2 3 4 5 6 10 11 12,72.5
2'F-ANA at 2 3 5 6 7 8 11 12 14 15,57.1
2'F-ANA at 1 10 13 15,54.1
2'F-ANA at 1 2 3 4 7 9 10 11 12 13 15,64.7
2'F-ANA at 5 7 8 9 10 12 14 15,49.3
2'F-ANA at 2 3 4 10 12 13 15,275
2'F-ANA at 1 4 6 9 11 14 15,48.4
2'F-ANA at 2 3 6 9 10 15,310
2'F-ANA at 7 9 10 11 15,345
2'F-ANA at 5 7 9 10 13,132
2'F-ANA at 5 6 9 11 15,59.3
2'F-ANA at 1 2 3 4 5 8 10 11 13 14 15,120
2'F-ANA at 4 5 6 8 9 10 11 12 13,50.4
2'F-ANA at 1 2 3 5 9 12 13 14,42.5
2'F-ANA at 2 4 6 9 10 11 14 15,75.2

# Study 3
# Target: ABI1, truncated, D143A, DHFR fusion (Arabidopsis thaliana)
# Method: DHFR PCA, deep sequencing
# Sample: yeast
# Setting: methotrexate growth selection, single substitutions
# Added: (+)-ABA 58 µM
# Baseline: wild-type fitted maximum
# Reading: higher = stronger binding
# Parent: PYL1, truncated, DHFR fusion (Arabidopsis thaliana); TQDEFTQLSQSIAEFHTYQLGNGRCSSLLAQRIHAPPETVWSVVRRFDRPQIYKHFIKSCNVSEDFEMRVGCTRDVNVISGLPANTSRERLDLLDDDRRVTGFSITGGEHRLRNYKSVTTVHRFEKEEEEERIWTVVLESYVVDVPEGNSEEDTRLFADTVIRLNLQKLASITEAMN
Variant,relative binding score [%]
E129D,95.6
S87G,-9.42
E174G,63
D3V,76.6
V70C,67.9
E67F,70.6
P36V,54.8
E14S,65.6
L29F,27.2
K126T,106
R32L,78.1
I12Q,38.1
E139S,68.8
Y18S,71.4
V136E,22.8

# Study 4
# Target: FOSL2, bZIP domain (human)
# Method: DHFR protein complementation
# Sample: yeast
# Setting: single substitutions, most at no-binding floor
# Baseline: wild-type JUN-FOS pair
# Reading: higher = stronger binding
# Parent: JUN, bZIP domain (human); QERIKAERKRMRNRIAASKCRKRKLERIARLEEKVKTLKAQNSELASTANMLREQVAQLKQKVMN; partner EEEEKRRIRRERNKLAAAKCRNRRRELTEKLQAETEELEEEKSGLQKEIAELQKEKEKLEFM
Variant,binding fitness
E44L,-0.0201 natural log
A40V,0.0503 natural log
E32R,0.136 natural log
E32Q,-0.0442 natural log
Q58R,-0.116 natural log
T37D,0.0568 natural log
V35C,-0.149 natural log
V35Y,-0.257 natural log
A57P,-1.34 natural log
I28W,-0.0317 natural log

# Study 5
# Target: Histone acetyltransferase KAT6A, both winged helices, GST fusion (KAT6A, Homo sapiens, UniProt Q92794, residues 1-181)
# Method: protein binding microarray
# Molecule type: double-stranded DNA, one strand shown
# Sample: in vitro
# Concentration: not given
# Setting: 8-mer, flanks averaged, mean of 2 arrays, mostly near background
# Baseline: not given
# Reading: higher = stronger binding
# Construct (chain): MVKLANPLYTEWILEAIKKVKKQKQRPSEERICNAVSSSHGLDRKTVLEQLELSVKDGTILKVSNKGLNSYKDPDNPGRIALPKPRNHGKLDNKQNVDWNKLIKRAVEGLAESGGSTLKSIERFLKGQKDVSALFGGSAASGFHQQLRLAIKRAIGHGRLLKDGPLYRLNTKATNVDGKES
Sequence,E-score
AAGGCATC,-0.125
CCCATATC,-0.151
CTCGGAAG,0.0634
AGGTCGGC,0.0842
AATGCCGT,0.332
AGAATTGA,-0.132
CGTTTTAC,0.0441
CGACCACG,0.107
TCACCTCA,-0.11
ACGTTGCT,-0.0319
CAGTTATA,-0.0821
AACTGCTT,-0.0749
CTCTGAAC,-0.102
AACACAGC,-0.0393
GCTCGCGA,0.22
TACTCGAA,-0.041
GAGTAGGA,-0.21
CGAACTCA,-0.0791
CCAGCCTC,-0.268

# Study 6
# Target: CCND3, cyclin fold, Cln2 fusion (human)
# Method: yeast growth competition, sequencing
# Sample: yeast
# Setting: weak parent motif
# Baseline: not given
# Reading: higher = stronger binding
# Parent: GMNC docking peptide (human); KNAKRNLSSEFAN
Variant,normalised enrichment score
E10S,0.108
R5S,0.408
A3P,-0.692
F11W,0.0672
R5M,0.267
E10L,-0.0421
S8C,-0.321
L7R,-0.0195
R5I,0.313
L7A,0.393
S9P,0.248
K4G,0.139
R5D,0.0752
R5Q,0.344
S8P,0.645
L7W,-0.00193
A12M,-0.197
R5G,0.367
F11S,0.0861
N6A,0.169
S8H,0.284
S9E,0.14
A12K,0.427
S9Q,-0.0849

# Excerpt of the above (study 4):
Variant,binding fitness
Q58R,-0.116 natural log
T37D,0.0568 natural log
A57P,-1.34 natural log
V35Y,-0.257 natural log
V35C,-0.149 natural log
E44L,-0.0201 natural log
E32R,0.136 natural log
I28W,-0.0317 natural log
A40V,0.0503 natural log
E32Q,-0.0442 natural log
